Measured values from different studies.
Compare with care: the assays were run in different laboratories. ± gives the spread as reported.
Target: Dual specificity mitogen-activated protein kinase kinase 6 (MAP2K6, Homo sapiens, UniProt P52564)
Residues used in one study (P52564 1-334): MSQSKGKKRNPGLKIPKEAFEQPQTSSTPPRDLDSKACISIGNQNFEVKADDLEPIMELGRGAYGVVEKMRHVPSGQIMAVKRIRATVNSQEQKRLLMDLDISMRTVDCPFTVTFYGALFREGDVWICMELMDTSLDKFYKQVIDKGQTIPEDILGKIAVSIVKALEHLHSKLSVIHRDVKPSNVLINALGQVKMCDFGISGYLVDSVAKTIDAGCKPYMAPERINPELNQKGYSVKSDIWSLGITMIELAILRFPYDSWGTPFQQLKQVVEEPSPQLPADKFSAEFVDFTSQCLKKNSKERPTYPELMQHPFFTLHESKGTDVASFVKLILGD

With COc1cc(F)ccc1-c1ncnc(Nc2cccc(C[S@](C)(=N)=O)c2)n1 the remaining activity was 120% (kinase activity; 10 µM, together with: 10 µM ATP).
C=CC(=O)N1CCC([C@@H]2CCNc3c(C(N)=O)c(-c4ccc(Oc5ccccc5)cc4)nn32)CC1 has a remaining activity of 99.6 ± 1.4% (kinase activity, inhibitor, HotSpot radiometric; 100 nM, together with: ATP 10 µM).
O=C1NC(=O)/C(=C/c2ccc(-c3ccc(F)cc3O)o2)S1 has a remaining activity of 99% (enzyme activity; 10 µM).
C=CC(=O)N1CCC(COCC(=O)N2CCN(c3nc(-c4cnc(N)nc4C(F)F)nc(N4CCOC[C@@H]4C)n3)CC2)CC1 has a remaining binding of 100% (KINOMEscan; 1 µM).
COc1ccc(F)cc1C(=O)NCc1ccc(-c2nn([C@@H](C)C(F)(F)F)c(N)c2C(N)=O)cc1 has a remaining activity of 69.4 ± 4.7% (kinase activity, inhibitor, HotSpot radiometric; 1000 nM, together with: ATP at Km).
O=C(NC1CCC1)c1ccc2nc(-c3cccc(NS(=O)(=O)NCCN4CCCCC4)c3)cn2c1 has a remaining activity of 91% (enzyme activity; 10 µM).
With C=CC(=O)N1CCC[C@@H](n2nc(-c3ccc(Oc4ccccc4)cc3)c3c(N)ncnc32)C1 the remaining activity was 91.1 ± 0.1% (kinase activity, inhibitor, HotSpot radiometric; 100 nM, together with: ATP 10 µM).
With CC[C@@H]1[C@H](F)C(=O)N[C@@H]1COc1nccc2cc(C(N)=O)c(OC)cc12 the inhibition was -4.9% (ATP-site probe binding, ActivX profiling; THP-1 cell lysate; 0.04 mM, Lys1 site).
For CC/C(=N\NC(=O)NCc1cccc(O)c1)c1ccc(O)c(C)c1O, the inhibition was 2.7% (kinase activity; 0.1 µM).

For quick reference, copied from above:
With COc1cc(F)ccc1-c1ncnc(Nc2cccc(C[S@](C)(=N)=O)c2)n1 the remaining activity was 120% (kinase activity; 10 µM, together with: 10 µM ATP).
